Measured values gathered from unrelated publications.
Every numbered part comes from another study and shows a few of its results, in no order. Positions count from the first letter of the parent shown.

Block 1
Target: Interferon regulatory factor 5, full length, phosphomimetic (IRF5, Homo sapiens, UniProt Q13568-2, residues 1-514, S451D/S453D/S456D/S462D)
Method: protein-binding microarray
Molecule type: double-stranded DNA, one strand shown
Medium: in vitro
Tested at: 940 nM top
Setting: 60-bp whole probe
With: salmon DNA 0.4 mg/ml
Reference: random background probes
Direction: higher = stronger binding
Constant ends, left off below: GCCTAGCAC … GTCTTGATTCGCTTGACGCTGCTG
Strand	fitted relative affinity [z-score]
AACGATCTCAGTCTCGAGACGTGCTAG	1.36
TCATATATGCATGTAAAACTGTGCTAG	-0.0971
GACGGTTGCCTTATCCTGACGTGCTAG	-0.0422
TTAGGTATCGGTATCTGTTAGTGCTAG	9.75
TTAGGACTGGGTTTTGGTTAGTGCTAG	0.82
GACGATCTCAGTATGGAGACGTGCTAG	0.0873
GACGGTATCCTACTTCTGACGTGCTAG	0.00786
GACGGTCACCTTCTCCTGACGTGCTAG	0.137
TTAAGTATCCTTATCCTTTAGTGCTAG	0.494
TTAGGTTTCGTCTTTCGGTTAGTGCTA	8
GCCGATTTCAGTTTCGAGACGTGCTAG	5.48
GGCTTGACGTCATCCCCTTGGTGCTAG	-0.701
TTGGGTTTCGGTCTCGGTTAGTGCTAG	13.5
TTAGAACTGCGTATCGATTAGTGCTAG	1.08
CTAGGTATCGGACTGGGTTAGTGCTAG	2.76
TCAAACTTTTTTCTGATACTGTGCTAG	0.8
TTAGGTTCCCTTTTCCTATAGTGCTAG	1.3

Block 2
Target: ABI1, truncated, D143A, DHFR fusion (Arabidopsis thaliana)
Method: DHFR PCA, deep sequencing
Medium: yeast
Setting: methotrexate growth selection, single substitutions
With: (+)-ABA 4.8 µM
Reference: wild-type fitted maximum
Direction: higher = stronger binding
Starting sequence: PYL1, truncated, DHFR fusion (Arabidopsis thaliana); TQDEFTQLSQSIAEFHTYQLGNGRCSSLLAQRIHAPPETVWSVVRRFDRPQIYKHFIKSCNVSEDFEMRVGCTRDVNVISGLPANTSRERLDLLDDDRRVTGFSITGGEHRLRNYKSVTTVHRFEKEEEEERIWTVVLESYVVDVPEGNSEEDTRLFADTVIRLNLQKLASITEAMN; partner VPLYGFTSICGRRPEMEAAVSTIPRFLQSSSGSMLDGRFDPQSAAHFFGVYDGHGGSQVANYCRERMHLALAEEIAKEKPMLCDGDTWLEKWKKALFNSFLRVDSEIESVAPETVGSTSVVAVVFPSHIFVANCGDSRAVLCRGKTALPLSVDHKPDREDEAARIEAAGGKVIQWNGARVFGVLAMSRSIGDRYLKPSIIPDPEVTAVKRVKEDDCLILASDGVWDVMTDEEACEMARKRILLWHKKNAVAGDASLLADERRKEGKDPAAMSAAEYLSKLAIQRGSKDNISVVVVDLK
Variant	relative binding score
Q2S	72.5%
Q7C	75.3%
V44R	-5.59%
Q19E	83.5%
D3Q	71.5%
M176F	51.5%
N165S	3.43%
F56L	61.1%
R74D	2.05%
A13N	64.7%
T101K	-8.07%
R111F	0.752%
L93Y	63.7%
F15G	0.606%
F103C	-7.57%
Q10V	55.1%
R163H	25.2%
G102W	12.8%

Block 3
Target: RNA binding protein fox-1 homolog 2, RRM domain, GST-SBP tag (RBFOX2, Homo sapiens, UniProt O43251-10, residues 100-194)
Method: RNA Bind-n-Seq
Molecule type: RNA
Medium: in vitro
Tested at: 365 nM
Setting: natural RNA segment, single round, ends assumed
Reference: no-protein control
Direction: higher = stronger binding
Constant ends, left off below: GGGAGUUCUACAGUCCGACGAUC … UGGAAUUCUCGGGUGCCAA
Target sequence (chain): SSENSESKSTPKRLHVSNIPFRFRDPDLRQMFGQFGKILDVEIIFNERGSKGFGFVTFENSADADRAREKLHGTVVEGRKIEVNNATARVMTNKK
Strand	RBNS enrichment (R)
UAAUUUCAGCUGACUUUCCUCUGACUGCUUUGUCUACUCAGUUAGAAAUAUUCAGAUACAAGUUUUAUCUCAGGUGAAUAUCCUUGUAUCGUUUUGCUUUGCUGACAUGU	0.594
UUAUACAUACCUGGGGCAUCUUCUCAACUAGUGCGCAGGAGCACCAGGUAGAGGCAGCUGUGUGUGGAGAUGCAGUGUGUUCCUAGAGAAGGUGAACAACCUGAAAGCGC	0.527
UUCAAAGGGGCAACAGUGAUACCAUCCCUGCACUCCUGGGUCCUGCUCUUCCAAUGCCCAAGGCAUGGCAUGGUGGCAGCUGUGCCCCCGCCCAUUGCUUUGGAGCACAG	0.238
UUACUGUACCCUGCAGUGUUGAUUUUUAAAAUAGAGUUUUCUGCAGUAUGCUUUUAGUCUAAGAAAAGCACAGAUGGAGCAAUACUUUCCUUCUUUGAAGAGAAUCCCAA	0.658
UUUGAAUUUAUGAUUAUUUUCCAGAAGAAAUCUUGUAAACCUGUGGAUACUCAUUAAUUCUUUUGUUAAUAUUUAUUUCCAUGAUAGCAUCAUUCCAGCCAGACUUGCUG	0.86
GAAAGCAGUGCCUGCCAGCUGUUGUGCACCUUCCUGAGAAAUAAAUAUCCUCUAAAUUUUCAAACCAUCCUGUCUGGUGUUGGUUGAUUAGGUUGUGUCUGUGGGAACCA	0.829
AGACUAGAAGAGUCUUAAAUUAUAUGUGGGAGGAGGAGGGAUAGAACAUCACAACACUGCUCUAGUUUCUUGGAGAAUCACAUUUCUUUACAGGUUAAAGACAAACAAGA	0.413
CCUCCCACUUGGUCCCACCCACGACACGUGGGAAUUGUGGGAGCUACAAUUCAAGAUGAGAUUUGGAUGGGACACAGCCAAACCAUAUCAAUAGGUAUUAUUUUAUCCCC	0.384
UCAGAUUAAGCUGUUACUGAGUGAGACACGAGAAGAAUGGUGUUCGCUGGUCUGUCGGCUGUGUUCCUCUUAGUCAUCCUUGUGUUAAUGACAGGCAGUGGCUGGGAUCU	0.462
GUAAAUAGUUAUCAUUCUGGGUAACUGGUUGAAACUCUGACUUUUGGACAAGUAAUUCCUGGGGUUCUGUCUUUGGUAGCAUCACCAGGGAUAUUUGGGUGGGACAGACA	0.291
CAAAAUUAGGGAGCUCUUGACAGAAAGCAGUUCUGAUGCUUACAUCUGGAAUCUGAGGCAUCCUCUGACUCCACUCAAAGAGGGUGAGGGCCUUCUUAAGAUACAAAUGG	0.403
UCAGCGUUGGGGCUUCUUAGUAUCAGGACCUCUCUGAGGUAAGGACUUUCCUGUGUGGCCACAGAAACCUGGGGGCAUUCCGUUGCAGAGGUGUCCUCUGUCACGUGUGU	0.285

Block 4
Target: Prothrombin, mature alpha-thrombin (F2, Homo sapiens, UniProt P00734)
Method: aptamer microarray, sandwich
Molecule type: DNA with 2'F-ANA
Medium: in vitro
Tested at: 200 nM
Setting: whole 15-mer aptamer, many near background
With: Cy3 exosite-II aptamer, 400 nM
Direction: higher = stronger binding
Strand: GGTTGGTGTGGTTGG
Modification	mean fluorescence intensity [a.u.]
2'F-ANA at 1 4 9 13 15	77
2'F-ANA at 1 2 3 11 12 14	85.9
2'F-ANA at 5 6 7 8 10 11 13 14	45.4
2'F-ANA at 4 5 6 7 8 9 10 11 12 13 14 15	46.3
2'F-ANA at 2 3 4 6 11	516
2'F-ANA at 1 2 3 4 5 6 8 10 11 12 13 14	49
2'F-ANA at 4 6 8 9 10 11 12 14	63.6
2'F-ANA at 2 3 4 8 9 11 15	553
2'F-ANA at 3 4 8 10 12 15	375
2'F-ANA at 1 2 3 4 7 12 13 15	283
2'F-ANA at 1 3 5 7 8 9 12 13	104
2'F-ANA at 3 5 6 10 11 12 13	64.3
2'F-ANA at 2 3 4 5 7 8 12 14 15	79.3
2'F-ANA at 1 2 6 8 10 14	64
2'F-ANA at 1 2 3 4 5 6 7 8 9 11 14	56.6
2'F-ANA at 2 4 6 7 11 13	164
2'F-ANA at 3 6 7 8 9 10 13 14 15	341
2'F-ANA at 1 2 5 7 8 11 13 15	49.6

Block 5
Target: Histone acetyltransferase KAT6A, both winged helices, GST fusion (KAT6A, Homo sapiens, UniProt Q92794, residues 1-181)
Method: protein binding microarray
Molecule type: double-stranded DNA, one strand shown
Medium: in vitro
Tested at: not given
Setting: 8-mer, flanks averaged, mean of 2 arrays, mostly near background
Reference: not given
Direction: higher = stronger binding
Construct (chain): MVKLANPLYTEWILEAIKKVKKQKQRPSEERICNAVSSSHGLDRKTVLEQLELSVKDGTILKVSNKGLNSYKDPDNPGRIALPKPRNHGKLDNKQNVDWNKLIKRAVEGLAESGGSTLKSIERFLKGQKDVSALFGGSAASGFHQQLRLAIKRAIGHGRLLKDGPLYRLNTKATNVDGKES
Strand	E-score
GAATTGGC	-0.0586
ATGGGGCG	-0.11
CAGCGCCG	0.337
ACAGCGCC	0.277
AGTGTCTC	-0.143
CGCCCGAA	0.0556
ATGAGGCG	0.094
AGAGTCTG	-0.196
AGGAGGAT	-0.14
AAACGCTT	0.0702
CCCAAGAC	-0.176
CTGATAGC	0.00235
AGCTCGCC	0.0823
TGACGGAA	0.288
TACACGCA	0.0867
AGCCCCAA	-0.304
ATTTCCCG	0.19
ATACCTAA	-0.194
AATTGAGG	-0.21
AGGAAAGC	0.0319
ACAGTACG	0.0136

Block 6
Target: PABPC1L2, full length, GST fusion (mouse, UniProt A0ABA7IW68)
Method: RNAcompete
Molecule type: RNA
Medium: in vitro
Tested at: 20 nM
Setting: 7-mer, probes averaged, single round
Reference: mean of 7-mers
Direction: higher = stronger binding
Construct (chain): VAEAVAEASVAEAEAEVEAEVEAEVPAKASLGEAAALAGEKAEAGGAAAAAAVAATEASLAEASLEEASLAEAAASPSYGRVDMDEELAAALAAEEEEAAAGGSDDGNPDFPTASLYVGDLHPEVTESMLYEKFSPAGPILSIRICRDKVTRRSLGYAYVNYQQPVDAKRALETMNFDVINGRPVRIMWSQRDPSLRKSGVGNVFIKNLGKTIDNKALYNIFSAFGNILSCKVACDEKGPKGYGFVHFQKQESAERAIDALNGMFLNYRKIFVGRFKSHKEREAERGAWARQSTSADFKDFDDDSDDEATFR
Strand	7-mer Z-score
GCGCGUU	-0.228
GCAUGCG	-0.266
CACACUU	-0.142
AUGCAAU	-0.0881
UUCUAGU	-0.28
AAAUGGA	1.4
CACUUUC	-0.249
UUCCCCG	-0.485
ACCGGAU	-0.112
GCAUUUC	-0.313
AUUGUCG	-0.19
CUGUUAG	-0.269
ACACACU	0.0243
CGGCUUA	-0.17
CGUCUAA	-0.264
ACAUGGC	0.153
AGGGUGG	0.347

For quick reference, copied from above (block 6):
Strand	7-mer Z-score
ACAUGGC	0.153
UUCCCCG	-0.485
AUGCAAU	-0.0881
ACACACU	0.0243
AUUGUCG	-0.19
CGUCUAA	-0.264
CACACUU	-0.142
GCAUGCG	-0.266
